Measurements pooled from the literature.
A part holds a random share of what one study measured.
Sequence of UniProt P27448 (whole entry, looked up): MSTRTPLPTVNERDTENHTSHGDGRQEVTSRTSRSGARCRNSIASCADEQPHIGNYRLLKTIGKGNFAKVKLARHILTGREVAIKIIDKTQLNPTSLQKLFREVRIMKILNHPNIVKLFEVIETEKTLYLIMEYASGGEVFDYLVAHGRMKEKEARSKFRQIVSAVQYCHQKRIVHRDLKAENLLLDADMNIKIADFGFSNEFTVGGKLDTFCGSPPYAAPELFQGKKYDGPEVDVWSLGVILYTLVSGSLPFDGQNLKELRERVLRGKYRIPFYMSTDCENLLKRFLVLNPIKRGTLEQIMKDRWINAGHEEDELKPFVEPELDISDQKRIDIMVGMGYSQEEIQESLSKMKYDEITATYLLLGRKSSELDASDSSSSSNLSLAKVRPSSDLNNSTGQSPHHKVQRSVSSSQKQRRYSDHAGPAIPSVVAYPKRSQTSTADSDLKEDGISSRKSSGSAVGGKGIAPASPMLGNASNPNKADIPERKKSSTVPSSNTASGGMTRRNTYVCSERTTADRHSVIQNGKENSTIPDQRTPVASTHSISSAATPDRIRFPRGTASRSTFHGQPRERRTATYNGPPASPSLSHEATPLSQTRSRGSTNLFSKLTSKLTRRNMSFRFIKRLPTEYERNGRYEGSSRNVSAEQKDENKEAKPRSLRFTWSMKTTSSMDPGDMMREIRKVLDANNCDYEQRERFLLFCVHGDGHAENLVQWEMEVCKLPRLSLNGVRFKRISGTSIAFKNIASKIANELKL
Sequence of UniProt O60674 (whole entry, looked up): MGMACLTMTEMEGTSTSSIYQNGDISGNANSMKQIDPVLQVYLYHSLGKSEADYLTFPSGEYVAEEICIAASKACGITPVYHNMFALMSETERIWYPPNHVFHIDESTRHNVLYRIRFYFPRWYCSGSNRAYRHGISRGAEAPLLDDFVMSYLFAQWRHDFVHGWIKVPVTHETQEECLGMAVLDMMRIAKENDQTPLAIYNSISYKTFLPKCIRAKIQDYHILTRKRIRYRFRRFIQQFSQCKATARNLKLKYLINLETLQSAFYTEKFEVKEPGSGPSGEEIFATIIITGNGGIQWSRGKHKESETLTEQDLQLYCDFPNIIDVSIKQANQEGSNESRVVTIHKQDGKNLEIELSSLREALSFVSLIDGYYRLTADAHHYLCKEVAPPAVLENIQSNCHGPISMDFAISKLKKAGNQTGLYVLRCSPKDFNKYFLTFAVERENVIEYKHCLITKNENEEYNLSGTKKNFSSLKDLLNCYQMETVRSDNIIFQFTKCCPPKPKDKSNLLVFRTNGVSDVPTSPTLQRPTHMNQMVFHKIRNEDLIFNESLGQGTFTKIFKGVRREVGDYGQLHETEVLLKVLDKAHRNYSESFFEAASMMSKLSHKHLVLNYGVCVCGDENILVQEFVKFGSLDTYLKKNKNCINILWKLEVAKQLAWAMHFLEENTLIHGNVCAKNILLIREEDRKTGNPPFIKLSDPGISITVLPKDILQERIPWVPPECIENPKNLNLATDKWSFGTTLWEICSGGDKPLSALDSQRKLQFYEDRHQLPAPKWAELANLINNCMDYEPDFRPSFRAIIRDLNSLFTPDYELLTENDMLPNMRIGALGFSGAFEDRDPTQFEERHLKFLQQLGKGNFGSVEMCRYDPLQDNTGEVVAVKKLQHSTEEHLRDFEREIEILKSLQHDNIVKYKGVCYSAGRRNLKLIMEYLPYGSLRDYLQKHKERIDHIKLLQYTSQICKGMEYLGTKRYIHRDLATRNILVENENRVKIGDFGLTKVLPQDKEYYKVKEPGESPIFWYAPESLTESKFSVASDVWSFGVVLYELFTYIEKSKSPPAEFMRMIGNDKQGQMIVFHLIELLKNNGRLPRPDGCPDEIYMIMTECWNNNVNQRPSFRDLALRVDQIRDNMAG
Sequence of UniProt O00506 (whole entry, looked up): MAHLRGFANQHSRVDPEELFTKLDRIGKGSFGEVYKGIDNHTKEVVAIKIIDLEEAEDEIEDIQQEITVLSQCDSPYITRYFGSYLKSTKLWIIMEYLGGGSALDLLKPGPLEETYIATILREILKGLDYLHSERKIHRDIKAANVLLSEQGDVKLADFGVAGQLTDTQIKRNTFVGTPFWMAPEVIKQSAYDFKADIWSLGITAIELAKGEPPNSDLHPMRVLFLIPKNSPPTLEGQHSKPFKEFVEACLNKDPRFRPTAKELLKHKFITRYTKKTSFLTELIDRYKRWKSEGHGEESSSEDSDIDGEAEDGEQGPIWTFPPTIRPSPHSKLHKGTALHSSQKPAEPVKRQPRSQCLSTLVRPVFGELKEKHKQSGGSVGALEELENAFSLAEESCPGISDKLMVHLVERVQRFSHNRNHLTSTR
Sequence of UniProt P03372 (whole entry, looked up): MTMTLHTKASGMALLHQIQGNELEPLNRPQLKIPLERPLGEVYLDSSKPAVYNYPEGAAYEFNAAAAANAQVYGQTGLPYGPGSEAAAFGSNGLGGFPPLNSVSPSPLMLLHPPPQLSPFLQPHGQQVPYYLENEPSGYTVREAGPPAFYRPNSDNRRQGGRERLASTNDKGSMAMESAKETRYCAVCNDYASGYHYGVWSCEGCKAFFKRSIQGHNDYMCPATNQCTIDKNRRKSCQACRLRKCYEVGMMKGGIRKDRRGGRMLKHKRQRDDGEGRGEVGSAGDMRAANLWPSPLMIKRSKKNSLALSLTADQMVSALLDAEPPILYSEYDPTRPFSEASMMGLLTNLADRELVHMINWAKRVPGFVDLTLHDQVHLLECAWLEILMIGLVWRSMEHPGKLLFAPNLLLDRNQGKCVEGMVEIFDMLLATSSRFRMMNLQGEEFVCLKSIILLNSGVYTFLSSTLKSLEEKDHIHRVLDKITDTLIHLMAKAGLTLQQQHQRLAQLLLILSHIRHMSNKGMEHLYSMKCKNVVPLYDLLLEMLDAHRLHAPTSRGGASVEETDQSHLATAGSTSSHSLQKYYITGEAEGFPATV
Sequence of UniProt P10721 (whole entry, looked up): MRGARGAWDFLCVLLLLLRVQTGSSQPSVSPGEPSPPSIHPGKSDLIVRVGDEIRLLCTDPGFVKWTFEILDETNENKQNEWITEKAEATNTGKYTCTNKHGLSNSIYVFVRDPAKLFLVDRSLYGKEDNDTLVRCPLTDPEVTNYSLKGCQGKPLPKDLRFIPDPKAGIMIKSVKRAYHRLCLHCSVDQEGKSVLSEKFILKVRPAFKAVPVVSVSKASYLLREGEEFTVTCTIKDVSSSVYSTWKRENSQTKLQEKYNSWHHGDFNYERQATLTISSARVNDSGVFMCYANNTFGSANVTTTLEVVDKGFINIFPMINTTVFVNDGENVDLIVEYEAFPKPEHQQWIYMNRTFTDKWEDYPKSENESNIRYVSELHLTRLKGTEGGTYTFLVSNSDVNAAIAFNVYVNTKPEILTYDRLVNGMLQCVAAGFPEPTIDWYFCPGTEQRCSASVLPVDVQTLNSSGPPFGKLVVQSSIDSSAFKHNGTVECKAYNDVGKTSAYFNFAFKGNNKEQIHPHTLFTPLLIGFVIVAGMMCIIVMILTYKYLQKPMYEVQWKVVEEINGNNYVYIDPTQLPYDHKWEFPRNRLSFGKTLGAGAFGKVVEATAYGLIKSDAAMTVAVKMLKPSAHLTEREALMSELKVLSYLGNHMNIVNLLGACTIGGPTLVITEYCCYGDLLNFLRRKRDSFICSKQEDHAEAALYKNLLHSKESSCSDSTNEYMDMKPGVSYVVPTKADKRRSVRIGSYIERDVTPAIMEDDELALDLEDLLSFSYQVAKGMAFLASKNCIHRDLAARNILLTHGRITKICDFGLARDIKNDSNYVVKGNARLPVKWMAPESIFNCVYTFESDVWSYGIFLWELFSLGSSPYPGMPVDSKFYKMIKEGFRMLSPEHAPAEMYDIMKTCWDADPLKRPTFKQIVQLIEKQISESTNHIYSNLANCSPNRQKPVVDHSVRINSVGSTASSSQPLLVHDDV
Sequence of UniProt Q13557 (whole entry, looked up): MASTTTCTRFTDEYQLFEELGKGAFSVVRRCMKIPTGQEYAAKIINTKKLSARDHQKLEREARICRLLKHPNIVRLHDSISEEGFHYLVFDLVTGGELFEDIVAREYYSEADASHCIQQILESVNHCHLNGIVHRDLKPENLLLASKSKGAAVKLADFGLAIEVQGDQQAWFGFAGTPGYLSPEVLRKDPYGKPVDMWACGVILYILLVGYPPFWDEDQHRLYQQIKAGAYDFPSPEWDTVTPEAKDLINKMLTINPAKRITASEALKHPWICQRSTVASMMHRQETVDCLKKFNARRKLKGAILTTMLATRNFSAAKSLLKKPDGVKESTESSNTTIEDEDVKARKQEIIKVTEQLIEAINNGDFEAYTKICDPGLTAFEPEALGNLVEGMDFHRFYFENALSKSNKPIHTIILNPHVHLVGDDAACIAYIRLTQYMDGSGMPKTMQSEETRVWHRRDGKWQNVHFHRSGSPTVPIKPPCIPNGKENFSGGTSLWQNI

Block 1
SMILES: CNC(=O)c1ccc(-c2cnn3ccc(C(=O)N(C)c4ccc(Cl)c(C(=O)OC)c4)cc23)cc1
target | read-out | mode | IC50 [µM]
Cyclin-dependent kinase 2 (CDK2, Homo sapiens, UniProt P24941) | enzyme activity | inhibitor | > 30
Estrogen receptor (ESR1, Homo sapiens, UniProt P03372) | cell-free assay | – | > 30
Vascular endothelial growth factor receptor 1 (FLT1, Homo sapiens, UniProt P17948) | enzyme activity | inhibitor | > 30
Ephrin type-A receptor 4 (EPHA4, Homo sapiens, UniProt P54764) | enzyme activity | inhibitor | > 30
MAP kinase-interacting serine/threonine-protein kinase 2 (MKNK2, Homo sapiens, UniProt Q9HBH9) | enzyme activity | inhibitor | > 30
Calcium/calmodulin-dependent protein kinase type II subunit delta (CAMK2D, Homo sapiens, UniProt Q13557) | enzyme activity | inhibitor | > 30
Mast/stem cell growth factor receptor Kit (KIT, Homo sapiens, UniProt P10721) | enzyme activity | inhibitor | > 30
Insulin receptor (INSR, Homo sapiens, UniProt P06213) | enzyme activity | inhibitor | > 30
Tyrosine-protein kinase JAK2 (JAK2, Homo sapiens, UniProt O60674) | enzyme activity | inhibitor | > 30

Block 2 — cell line: mouse MPNST tumor cells; method: high-content immunofluorescence imaging; item: nuclear SOX9; concentration: 10 µM; time: 12 h; notes: mean of 2 replicates; relative to: DMSO control; reading: higher = more nuclear SOX9
Structure (SMILES) | nuclear SOX9 intensity
Cc1sc2c(c1C)C(c1ccc(Cl)cc1)=N[C@@H](CC(=O)Nc1ccc(O)cc1)c1nnc(C)n1-2 | 132 % of DMSO
CN(C)NC(=O)CCC(=O)O | 91.3 % of DMSO
Cc1cc(C(C#N)c2ccc(Cl)cc2)c(Cl)cc1NC(=O)c1cc(I)cc(I)c1O (stereo not shown) | 110 % of DMSO

Block 3 — read-out: enzyme activity; mode: inhibitor; concentration: 0.5 µM; relative to: control
Compound: CCn1cnc2c(Nc3cccc(Cl)c3)nc(N[C@H]3CCCC[C@H]3N)nc21
target | remaining activity
Tyrosine-protein kinase Fyn (FYN, Homo sapiens, UniProt P06241) | 48.6%
Serine/threonine-protein kinase TAO3 (TAOK3, Homo sapiens, UniProt Q9H2K8) | 104%
ALK tyrosine kinase receptor (ALK, Homo sapiens, UniProt Q9UM73) | 92.3%
MAP/microtubule affinity-regulating kinase 3 (MARK3, Homo sapiens, UniProt P27448) | 98.7%
Serine/threonine-protein kinase 25 (STK25, Homo sapiens, UniProt O00506) | 101%
RAC-alpha serine/threonine-protein kinase (AKT1, Homo sapiens, UniProt P31749) | 108%

Mixed results — read-out: cell-free assay; method: competition with immobilised ligand; concentration: 1 µM
pknB: Serine/threonine-protein kinase PknB (pknB, Mycobacterium tuberculosis, UniProt P9WI81)
Sequence of UniProt P9WI81 (whole entry, looked up): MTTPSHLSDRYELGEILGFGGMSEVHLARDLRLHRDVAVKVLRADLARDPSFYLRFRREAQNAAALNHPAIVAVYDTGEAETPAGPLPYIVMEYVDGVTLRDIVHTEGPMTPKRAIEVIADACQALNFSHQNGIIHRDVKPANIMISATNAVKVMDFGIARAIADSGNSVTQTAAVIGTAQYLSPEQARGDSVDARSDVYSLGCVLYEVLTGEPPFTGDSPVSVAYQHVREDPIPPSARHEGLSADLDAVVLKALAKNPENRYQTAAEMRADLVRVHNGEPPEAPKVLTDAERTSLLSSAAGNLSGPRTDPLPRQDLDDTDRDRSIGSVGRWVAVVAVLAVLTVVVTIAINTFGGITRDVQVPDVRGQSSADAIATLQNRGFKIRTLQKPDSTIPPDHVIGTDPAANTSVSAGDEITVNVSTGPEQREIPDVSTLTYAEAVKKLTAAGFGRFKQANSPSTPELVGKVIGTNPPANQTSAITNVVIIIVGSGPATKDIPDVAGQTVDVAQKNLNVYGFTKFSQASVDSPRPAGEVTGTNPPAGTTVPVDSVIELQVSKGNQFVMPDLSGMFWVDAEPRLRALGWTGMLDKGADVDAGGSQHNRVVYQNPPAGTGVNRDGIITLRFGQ
Structure (SMILES) | target | remaining binding [%]
C[C@@]1(Cc2ccc(C#N)cc2)C(=O)N(c2cc(Cl)cc(Cl)c2)c2ncc(C(=O)NC3(c4nc(C5CCC5)no4)CC3)n21 | pknB | 96
Cc1nc(C2CCN(C(=O)c3ccc(OC(F)(F)F)cc3N)CC2)c2ncc(N3CCN(C)CC3)cc2n1 | pknB | 100
O=S(=O)(NC1CCC(c2cc(F)ccc2F)(S(=O)(=O)c2ccc(Cl)cc2)CC1)C(F)(F)F (stereo not shown) | Calcium-dependent protein kinase 1 (CDPK1, Plasmodium falciparum, UniProt P62344) | 100
Cc1cc(-n2nc(Cc3cc(F)cc(C(F)(F)F)c3)nc2C)ccc1C(N)=O | Cyclin-dependent kinase 2 homolog (CRK2, Plasmodium falciparum, UniProt P61075) | 100

A few entries again (block 3):
target | remaining activity
Serine/threonine-protein kinase TAO3 (TAOK3, Homo sapiens, UniProt Q9H2K8) | 104%
Serine/threonine-protein kinase 25 (STK25, Homo sapiens, UniProt O00506) | 101%
RAC-alpha serine/threonine-protein kinase (AKT1, Homo sapiens, UniProt P31749) | 108%
